Measured values collected from several papers.
Numbered parts are unrelated; each lists some results of a single study.

Series 1
Target: Histone acetyltransferase KAT6A, winged helix 2, GST fusion (KAT6A, Homo sapiens, UniProt Q92794, residues 85-181)
Method: protein binding microarray
Form: double-stranded DNA, one strand shown
Matrix: in vitro
Tested at: not given
Notes: 8-mer, flanks averaged, mean of 2 arrays, mostly near background
Relative to: not given
Direction: higher = stronger binding
Target sequence (chain): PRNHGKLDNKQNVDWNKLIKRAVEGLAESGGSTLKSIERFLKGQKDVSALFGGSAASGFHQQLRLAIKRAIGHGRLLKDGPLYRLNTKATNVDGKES
`ACGTGCAG` has an E-score of -0.111.
For `CCAAAAGC`, the E-score was 0.14.
`CGCAACTA` gave an E-score of 0.0254.
For `CATGGGAC`, the E-score was -0.15.
`AGAGGAGG` gave an E-score of -0.0274.
The E-score of `CTCACAGA` is reported as -0.0041.
With `ACGACTAA` the E-score was -0.0798.
The E-score of `GTCGGTTA` is reported as -0.109.
`CTAACGGA` gave an E-score of 0.0829.
For `AAACGGTC`, the E-score was -0.114.
`GACACTGA` gave an E-score of 0.0645.

Series 2
Target: Sal-like protein 4, full length isoform A (SALL4, Homo sapiens, UniProt Q9UJQ4, residues 1-1053)
Sequence of UniProt Q9UJQ4 (whole entry, looked up): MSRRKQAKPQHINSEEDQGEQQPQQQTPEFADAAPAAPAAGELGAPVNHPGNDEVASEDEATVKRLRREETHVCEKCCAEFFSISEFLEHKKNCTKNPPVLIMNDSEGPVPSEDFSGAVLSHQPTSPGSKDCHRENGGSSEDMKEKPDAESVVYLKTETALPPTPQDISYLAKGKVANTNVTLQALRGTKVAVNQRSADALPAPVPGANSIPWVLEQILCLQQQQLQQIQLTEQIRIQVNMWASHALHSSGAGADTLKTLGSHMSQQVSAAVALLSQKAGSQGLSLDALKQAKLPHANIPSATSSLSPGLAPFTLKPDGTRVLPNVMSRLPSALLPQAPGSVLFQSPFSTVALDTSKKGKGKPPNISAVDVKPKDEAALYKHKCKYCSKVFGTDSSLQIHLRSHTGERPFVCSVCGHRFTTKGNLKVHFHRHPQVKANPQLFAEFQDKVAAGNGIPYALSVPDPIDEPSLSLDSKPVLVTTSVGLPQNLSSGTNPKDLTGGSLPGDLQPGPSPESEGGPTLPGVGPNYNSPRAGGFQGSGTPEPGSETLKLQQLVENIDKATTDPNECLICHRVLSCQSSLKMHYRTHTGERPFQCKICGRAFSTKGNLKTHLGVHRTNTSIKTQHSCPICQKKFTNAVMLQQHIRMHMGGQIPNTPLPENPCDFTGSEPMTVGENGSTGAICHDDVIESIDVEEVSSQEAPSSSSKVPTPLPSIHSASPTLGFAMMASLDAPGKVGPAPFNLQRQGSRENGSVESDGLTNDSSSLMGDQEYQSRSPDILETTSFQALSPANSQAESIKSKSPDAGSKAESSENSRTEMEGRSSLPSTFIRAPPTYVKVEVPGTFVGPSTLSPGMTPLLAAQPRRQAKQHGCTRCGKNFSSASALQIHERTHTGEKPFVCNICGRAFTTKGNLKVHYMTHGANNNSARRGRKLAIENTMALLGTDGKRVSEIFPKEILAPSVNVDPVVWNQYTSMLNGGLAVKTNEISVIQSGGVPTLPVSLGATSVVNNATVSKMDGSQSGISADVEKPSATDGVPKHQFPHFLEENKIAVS
Method: universal PBM
Form: double-stranded DNA, one strand shown
Matrix: in vitro
Tested at: 600 nM
Notes: 8-mer, flanks averaged, mean of replicates
Direction: higher = stronger binding
With `ATGATACG` the E-score was 0.236.
The E-score of `CACAAGCC` is reported as -0.2.
`AGATAGCG` gave an E-score of -0.0115.
The E-score of `CGCTCAAG` is reported as -0.0975.
For `TTATGGAA`, the E-score was 0.346.
`AACCTGGG` has an E-score of -0.3.
`AAACATGA` has an E-score of 0.285.

Series 3
Target: Phosphate system positive regulatory protein PHO4, full length, GST-tagged (PHO4, Saccharomyces cerevisiae, UniProt P07270, residues 1-312)
Method: competition protein-binding microarray
Form: double-stranded DNA, one strand shown
Matrix: in vitro
Tested at: 2 µM
Notes: whole 60-bp probe, lowest competitor level
With: Cbf1 competitor, 0.05 µM
Direction: higher = stronger binding
Target sequence (chain): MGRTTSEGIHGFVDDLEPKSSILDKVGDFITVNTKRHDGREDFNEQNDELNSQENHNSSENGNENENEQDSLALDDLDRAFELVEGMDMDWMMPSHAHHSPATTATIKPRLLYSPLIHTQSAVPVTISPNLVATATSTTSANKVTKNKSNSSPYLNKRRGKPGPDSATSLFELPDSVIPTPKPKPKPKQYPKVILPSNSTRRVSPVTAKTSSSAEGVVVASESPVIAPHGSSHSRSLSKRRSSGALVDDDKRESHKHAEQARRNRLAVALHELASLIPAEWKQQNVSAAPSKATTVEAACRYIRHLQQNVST
For `AAATTACTAAGTTGACCGGTGGGTGACGCCGTATGAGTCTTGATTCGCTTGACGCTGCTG`, the fluorescence intensity was 3910 a.u.
The fluorescence intensity of `TTGTCTCATATTACCCACGTGGAAGGCGCCCAACATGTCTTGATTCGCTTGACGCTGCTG` is reported as 18500 a.u.
With `TAACACATAACCCATCACGTGTTGGTCTTGATAGTCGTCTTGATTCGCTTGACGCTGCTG` the fluorescence intensity was 16600 a.u.
For `CTTCTGTAAATTTGATCTGTGGGTGGACGCGCCCCGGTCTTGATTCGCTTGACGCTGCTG`, the fluorescence intensity was 4670 a.u.
The fluorescence intensity of `CAAAACGTTAGTTTAGTCGTGCTAAACCGCTATTTTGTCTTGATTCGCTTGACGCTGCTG` is reported as 6430 a.u.
The fluorescence intensity of `CTTTCCCGATCTTGGAAGGTGGGTGTAGCACATTTGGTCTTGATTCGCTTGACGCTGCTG` is reported as 4250 a.u.
For `TACCCAGCGCGTCCGCACGTGCTTTTTATGGAAACTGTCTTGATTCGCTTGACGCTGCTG`, the fluorescence intensity was 18400 a.u.
`CCCGGTATTAGTTTGCACGTTTTCTTTCCTTTGCTTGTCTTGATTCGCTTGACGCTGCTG` gave a fluorescence intensity of 12000 a.u.
With `CATACCCAACCTTGCTGGGTGGGTGAAGATATTTGTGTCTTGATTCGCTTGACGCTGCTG` the fluorescence intensity was 4930 a.u.
`CTCTTGGTTTACTGTCACATGGAGAACCTTTACTGGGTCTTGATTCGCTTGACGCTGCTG` has a fluorescence intensity of 8810 a.u.

Further values, each from its own experiment
`PhoQ, residues 284 288 289 292 302 303 QWGLFV` gave a fold induction of 4.15 (PhoP, residues 12 14 15 18 19 AQALL (Escherichia coli, UniProt P23836); Sort-seq, measured: YFP reporter; E. coli; PhoQ-PhoP variant library, with: 10 µM Mg2+; relative to: high Mg2+ state, higher = stronger signaling).

A few entries again (series 3):
For `CTTCTGTAAATTTGATCTGTGGGTGGACGCGCCCCGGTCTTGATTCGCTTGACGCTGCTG`, the fluorescence intensity was 4670 a.u.
`CCCGGTATTAGTTTGCACGTTTTCTTTCCTTTGCTTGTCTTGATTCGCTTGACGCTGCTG` gave a fluorescence intensity of 12000 a.u.
